Experimental data of several laboratories.
Compare with care: the assays were run in different laboratories. ± marks the error that the study gave.
CYP2B6: Cytochrome P450 2B6 (CYP2B6, Homo sapiens, UniProt P20813)
Chain of UniProt P20813 (whole entry, looked up): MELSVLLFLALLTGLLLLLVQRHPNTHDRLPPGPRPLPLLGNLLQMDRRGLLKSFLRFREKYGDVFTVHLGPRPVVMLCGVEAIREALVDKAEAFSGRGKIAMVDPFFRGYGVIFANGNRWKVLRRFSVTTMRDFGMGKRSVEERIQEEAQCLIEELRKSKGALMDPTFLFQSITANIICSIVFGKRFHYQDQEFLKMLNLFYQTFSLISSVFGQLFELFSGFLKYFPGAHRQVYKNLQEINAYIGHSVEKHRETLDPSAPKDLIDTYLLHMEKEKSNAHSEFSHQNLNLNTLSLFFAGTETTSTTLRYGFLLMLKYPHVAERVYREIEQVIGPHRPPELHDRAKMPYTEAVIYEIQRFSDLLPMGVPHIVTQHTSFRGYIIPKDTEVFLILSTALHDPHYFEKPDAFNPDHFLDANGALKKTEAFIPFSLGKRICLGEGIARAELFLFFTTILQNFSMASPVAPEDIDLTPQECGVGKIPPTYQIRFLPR
CYP27A1: Sterol 26-hydroxylase, mitochondrial (CYP27A1, Homo sapiens, UniProt Q02318)
Chain of UniProt Q02318 (whole entry, looked up): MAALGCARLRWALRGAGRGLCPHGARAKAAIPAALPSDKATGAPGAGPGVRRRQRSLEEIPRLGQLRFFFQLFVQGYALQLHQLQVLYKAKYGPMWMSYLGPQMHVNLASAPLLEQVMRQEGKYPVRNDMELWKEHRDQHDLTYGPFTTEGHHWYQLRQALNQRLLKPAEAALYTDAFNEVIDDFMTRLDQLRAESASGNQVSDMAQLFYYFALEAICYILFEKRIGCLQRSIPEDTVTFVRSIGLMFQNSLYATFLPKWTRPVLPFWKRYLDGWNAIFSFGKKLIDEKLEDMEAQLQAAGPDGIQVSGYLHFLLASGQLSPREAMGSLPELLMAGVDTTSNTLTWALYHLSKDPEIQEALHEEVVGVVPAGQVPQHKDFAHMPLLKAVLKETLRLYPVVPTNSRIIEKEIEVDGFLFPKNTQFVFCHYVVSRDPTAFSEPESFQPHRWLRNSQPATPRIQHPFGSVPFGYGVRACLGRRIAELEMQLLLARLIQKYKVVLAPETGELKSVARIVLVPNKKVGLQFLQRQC
CYP2D6: Cytochrome P450 2D6 (CYP2D6, Homo sapiens, UniProt P10635)
Chain of UniProt P10635 (whole entry, looked up): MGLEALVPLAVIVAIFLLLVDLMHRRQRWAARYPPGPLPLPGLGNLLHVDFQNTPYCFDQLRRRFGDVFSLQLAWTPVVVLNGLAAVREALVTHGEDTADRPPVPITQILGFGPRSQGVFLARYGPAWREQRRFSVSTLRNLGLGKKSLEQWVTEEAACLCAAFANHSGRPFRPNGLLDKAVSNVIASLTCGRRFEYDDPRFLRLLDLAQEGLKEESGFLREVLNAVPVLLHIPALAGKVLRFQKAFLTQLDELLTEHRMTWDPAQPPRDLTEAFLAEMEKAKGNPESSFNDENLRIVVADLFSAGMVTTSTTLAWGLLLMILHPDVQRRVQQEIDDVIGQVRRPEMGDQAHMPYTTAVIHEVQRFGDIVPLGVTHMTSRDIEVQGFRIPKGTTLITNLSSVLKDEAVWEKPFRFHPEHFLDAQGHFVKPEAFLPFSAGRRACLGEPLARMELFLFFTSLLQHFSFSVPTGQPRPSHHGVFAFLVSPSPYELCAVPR
Chain of UniProt P07711 (whole entry, looked up): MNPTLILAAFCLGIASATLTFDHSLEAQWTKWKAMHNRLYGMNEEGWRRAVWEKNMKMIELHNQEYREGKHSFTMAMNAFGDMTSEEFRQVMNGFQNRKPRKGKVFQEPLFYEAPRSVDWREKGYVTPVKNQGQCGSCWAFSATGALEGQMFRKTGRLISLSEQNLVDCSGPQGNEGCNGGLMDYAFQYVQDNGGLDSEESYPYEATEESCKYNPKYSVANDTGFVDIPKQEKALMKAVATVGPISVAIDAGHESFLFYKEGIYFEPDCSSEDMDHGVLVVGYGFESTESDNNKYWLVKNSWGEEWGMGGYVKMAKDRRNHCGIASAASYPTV
Chain of UniProt P11980 (whole entry, looked up): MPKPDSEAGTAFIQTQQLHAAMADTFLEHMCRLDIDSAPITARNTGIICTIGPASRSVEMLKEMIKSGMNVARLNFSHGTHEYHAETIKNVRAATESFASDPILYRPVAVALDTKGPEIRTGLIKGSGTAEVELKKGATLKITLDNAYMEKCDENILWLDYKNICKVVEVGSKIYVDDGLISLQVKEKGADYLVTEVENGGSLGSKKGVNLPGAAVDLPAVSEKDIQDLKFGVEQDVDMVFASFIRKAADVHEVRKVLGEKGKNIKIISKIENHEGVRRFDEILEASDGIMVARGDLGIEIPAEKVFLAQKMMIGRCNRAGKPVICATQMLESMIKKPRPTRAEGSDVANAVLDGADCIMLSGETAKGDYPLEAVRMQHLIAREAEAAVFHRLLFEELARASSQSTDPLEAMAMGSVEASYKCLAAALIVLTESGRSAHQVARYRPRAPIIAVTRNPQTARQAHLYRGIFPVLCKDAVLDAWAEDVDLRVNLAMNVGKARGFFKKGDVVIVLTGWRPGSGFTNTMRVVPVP
Chain of UniProt P08253 (whole entry, looked up): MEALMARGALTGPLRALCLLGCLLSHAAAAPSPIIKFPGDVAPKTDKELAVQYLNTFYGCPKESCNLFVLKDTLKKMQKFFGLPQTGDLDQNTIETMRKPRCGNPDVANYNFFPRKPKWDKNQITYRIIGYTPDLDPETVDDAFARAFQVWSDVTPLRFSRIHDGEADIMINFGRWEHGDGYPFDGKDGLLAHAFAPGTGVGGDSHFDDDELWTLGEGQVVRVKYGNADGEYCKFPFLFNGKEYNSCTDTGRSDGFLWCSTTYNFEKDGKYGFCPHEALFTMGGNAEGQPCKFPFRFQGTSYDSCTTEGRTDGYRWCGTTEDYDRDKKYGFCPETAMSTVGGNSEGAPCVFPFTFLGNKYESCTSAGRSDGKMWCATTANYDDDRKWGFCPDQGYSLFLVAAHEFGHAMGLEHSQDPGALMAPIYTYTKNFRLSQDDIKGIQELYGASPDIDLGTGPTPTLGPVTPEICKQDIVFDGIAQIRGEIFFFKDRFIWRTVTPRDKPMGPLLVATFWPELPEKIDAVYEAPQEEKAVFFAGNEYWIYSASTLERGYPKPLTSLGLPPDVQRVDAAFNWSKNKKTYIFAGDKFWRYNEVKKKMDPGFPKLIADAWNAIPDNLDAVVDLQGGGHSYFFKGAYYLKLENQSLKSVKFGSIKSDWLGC
Chain of UniProt Q12809 (whole entry, looked up): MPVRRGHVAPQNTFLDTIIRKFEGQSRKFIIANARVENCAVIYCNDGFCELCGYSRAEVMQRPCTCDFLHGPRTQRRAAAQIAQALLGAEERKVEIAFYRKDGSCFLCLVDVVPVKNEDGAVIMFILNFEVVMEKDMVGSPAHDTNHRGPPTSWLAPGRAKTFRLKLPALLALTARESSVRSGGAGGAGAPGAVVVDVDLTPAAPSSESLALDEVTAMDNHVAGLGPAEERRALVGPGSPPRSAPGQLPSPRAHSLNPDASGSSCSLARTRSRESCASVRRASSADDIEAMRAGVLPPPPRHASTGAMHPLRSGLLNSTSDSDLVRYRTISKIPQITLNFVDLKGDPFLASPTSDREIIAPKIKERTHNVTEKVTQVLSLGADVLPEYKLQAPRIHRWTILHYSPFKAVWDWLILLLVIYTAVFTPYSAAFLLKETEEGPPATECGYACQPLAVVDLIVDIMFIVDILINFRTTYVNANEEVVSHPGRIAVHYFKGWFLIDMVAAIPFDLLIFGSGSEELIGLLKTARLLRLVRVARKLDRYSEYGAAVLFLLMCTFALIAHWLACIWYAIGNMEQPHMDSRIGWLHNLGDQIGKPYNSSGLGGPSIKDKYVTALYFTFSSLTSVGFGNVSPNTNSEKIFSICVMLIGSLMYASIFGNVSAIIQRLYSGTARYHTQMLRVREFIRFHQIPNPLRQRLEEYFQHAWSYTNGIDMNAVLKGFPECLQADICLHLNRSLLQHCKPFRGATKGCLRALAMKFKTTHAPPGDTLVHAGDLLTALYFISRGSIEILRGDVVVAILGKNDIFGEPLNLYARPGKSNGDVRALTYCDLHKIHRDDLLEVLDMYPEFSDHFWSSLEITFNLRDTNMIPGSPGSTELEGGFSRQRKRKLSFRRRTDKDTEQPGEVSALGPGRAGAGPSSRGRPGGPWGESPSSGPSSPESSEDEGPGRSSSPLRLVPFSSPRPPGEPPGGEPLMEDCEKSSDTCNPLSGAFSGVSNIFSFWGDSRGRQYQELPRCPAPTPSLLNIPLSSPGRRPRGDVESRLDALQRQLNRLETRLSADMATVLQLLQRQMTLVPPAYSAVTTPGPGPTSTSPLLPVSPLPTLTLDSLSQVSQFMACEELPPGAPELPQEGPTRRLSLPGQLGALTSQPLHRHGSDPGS
Chain of UniProt P00760 (whole entry, looked up): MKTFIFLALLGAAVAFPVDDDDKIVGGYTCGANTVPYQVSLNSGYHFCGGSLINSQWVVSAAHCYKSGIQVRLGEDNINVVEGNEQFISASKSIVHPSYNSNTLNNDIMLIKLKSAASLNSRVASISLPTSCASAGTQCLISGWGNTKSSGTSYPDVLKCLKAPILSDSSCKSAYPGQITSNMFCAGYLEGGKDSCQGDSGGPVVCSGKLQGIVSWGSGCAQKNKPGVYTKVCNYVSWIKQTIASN
Chain of UniProt P16257 (whole entry, looked up): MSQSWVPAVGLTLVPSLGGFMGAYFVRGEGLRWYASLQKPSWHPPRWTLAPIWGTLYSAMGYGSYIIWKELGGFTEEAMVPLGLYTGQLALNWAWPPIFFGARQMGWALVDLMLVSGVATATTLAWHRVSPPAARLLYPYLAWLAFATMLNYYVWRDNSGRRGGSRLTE
Chain of UniProt Q9CPV9 (whole entry, looked up): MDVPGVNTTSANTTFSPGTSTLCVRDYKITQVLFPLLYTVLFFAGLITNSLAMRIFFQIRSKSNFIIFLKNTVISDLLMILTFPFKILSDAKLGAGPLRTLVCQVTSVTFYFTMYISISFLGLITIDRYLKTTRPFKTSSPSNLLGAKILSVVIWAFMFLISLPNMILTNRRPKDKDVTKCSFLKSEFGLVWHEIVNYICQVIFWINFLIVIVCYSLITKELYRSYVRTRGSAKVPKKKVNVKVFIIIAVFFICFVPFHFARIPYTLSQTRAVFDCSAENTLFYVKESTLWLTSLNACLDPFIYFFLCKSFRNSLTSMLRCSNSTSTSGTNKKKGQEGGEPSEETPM

`C=CC(=O)Nc1cc(Nc2nccc(-c3cn(C)c4ccccc34)n2)c(OCC(F)(F)F)nc1N(C)CCN(C)C` — result for “activity vs control”: 95.8% (CYP2B6; enzyme activity, inhibitor; human, liver microsomes; 33.3 µM).
`N#Cc1cc(C(=O)OCC[18F])c(C(F)(F)F)nc1N1CCN(C(=O)Cc2ccccc2)CC1` has an SUV of 0.61 ± 0.06 (P2Y purinoceptor 12 (P2ry12, Mus musculus, UniProt Q9CPV9); PET; young mouse, 6 weeks, brain; 11.1 MBq, 60 min).
For `C=C1CCC(O)CC1=CC=C1CCCC2(C)C1CCC2C(C)(O)CCCCCC` (stereo not drawn), the substrate conversion was 18% (CYP27A1; substrate; 50 µM, 3 h, 0.45% cyclodextrin, 1 µM enzyme).
For `[64Cu+2].c1ccc(CNCc2ccc(CN3CCCN4CCNCCCN(CC4)CC3)cc2)nc1`, the tissue uptake was 3.7 ± 0.25 %ID/g (CXCR4; NOD/SCID mouse, U87 xenografts, small intestine; 90 min).
For `COc1cc(-c2nc3ccccc3s2)cc(CN(C)Cc2ccccn2)c1O`, the log K was 5.3 (Cu2+; UV-vis pH titration; M2+ + HL = [MHL]+ complex).
For `CCC(=O)N(C)c1ccc(Cl)c(Cl)c1`, the inhibition was 1.44% (KCNH2 (Homo sapiens, UniProt Q12809); ion current, inhibitor, patch clamp; HEK293; 1 µM).
`Cc1cccc(Cn2ncc3c4cc(F)c(CN(C)C)cc4n(C)c3c2=O)n1`: “half-life of slow phase” 1390 h (Pyruvate kinase PKM (Rattus norvegicus, UniProt P11980); enzyme activity, activator; rat, retina; intravitreal, 10 µM vitreous concentration).
For `CCC1CC2C(C)=CC3C(=O)CCCC3C=CC(C)=CC2C(=O)O1` (stereo not drawn), the remaining activity was 114% (CYP2B6; human liver microsomes; 10 µM, 10 min, pH 7.4, together with: bupropion 3.5 µM; baseline: untreated).
The half-life of `CC(=O)N[C@H](C(=O)N[C@H](C(=O)N[C@@H](CCCNC(=N)N)C(=O)N1Cc2ccccc2C[C@H]1C(=O)N[C@@H](Cc1ccccc1)C(N)=O)C1CCCCC1)C(C)C` is reported as 24 h (Procathepsin L (CTSL, Homo sapiens, UniProt P07711); substrate; isolated enzyme in acetate buffer; 1 mg/mL, pH 5.5, 0.01 U enzyme per µmol compound).
With `[64Cu+2].c1cnc(CNCc2ccc(CN3CCCN4CCNCCCN(CC4)CC3)cc2)nc1` the tissue uptake was 6.49 ± 0.6 %ID/g (CXCR4 (human); NOD/SCID mice, U87 xenografts, U87 control tumour; 120 min post-injection).
With `CCc1cc(C)nc2c(CC(=O)N(CC)CC)c(-c3ccc(OCC[18F])cc3)nn12` the K1/k2 ratio was 0.277 mL/cm3 (Tspo (Rattus norvegicus, UniProt P16257); two-tissue compartment model; rat C6 glioma model, brain; 60 min dynamic PET).
With `CNC(=O)c1ccc(N2CCN(Cc3ccc4nc(C)c(=O)[nH]c4c3F)CC2)c([18F])n1` the radioactivity uptake was 1.1 SUV (Poly [ADP-ribose] polymerase 1 (Macaca mulatta, UniProt H9FQ77); PET; male rhesus monkeys, prefrontal cortex; intravenous, dose not given, baseline).
`C/C=C/C[C@@H](C)[C@@H](O)[C@H]1C(=O)N[C@@H](CC)C(=O)N(C)C(Cc2ccc(C(=O)NCCOCCNC(=O)CC[P+](c3ccccc3)(c3ccccc3)c3ccccc3)cc2)C(=O)N(C)[C@@H](CC(C)C)C(=O)N[C@@H](C(C)C)C(=O)N(C)[C@@H](CC(C)C)C(=O)N[C@@H](C)C(=O)N[C@H](C)C(=O)N(C)[C@@H](CC(C)C)C(=O)N(C)[C@@H](CC(C)C)C(=O)N(C)[C@@H](C(C)C)C(=O)N1C` (stereo partly drawn) gave an inhibition of 4% (calcineurin; phosphatase activity, phosphate release; 720 nM, together with: complex with cyclophilin A).
`COc1cc(-c2nc3ccccc3s2)cc(CN(Cc2ccccn2)Cc2ccccn2)c1O` gave a log K of 22 (Cu2+; UV-vis pH titration; M2+ + L- = [ML]+ complex).
`O=C(CS(=O)(=O)Cc1ccco1)C12CC3CC(CC(C3)C1)C2` has an inhibition of 0% (CYP2D6; enzyme activity, inhibitor; 10 µM).
`CCc1nc(N)nc(N)c1C#CC(C)c1cc(-c2ccnc(OC)c2)ccc1OC` (racemic) gave an IC50 of 13.2 µM (CYP2D6; enzyme activity, inhibitor, fluorescence).
`COc1ccc2cc(NC(=O)c3cc(-c4ccncc4)nc4ccccc34)ccc2c1` gave a Km of 0.6 µM (Cytochrome P450 3A4 (CYP3A4, Homo sapiens, UniProt P08684); substrate, LC-MS, item: metabolites M1 plus M2; baculosomes).
Under “number of products”, `C=C1CCC(O)CC1=CC=C1CCCC2(C)C1CCC2C(C)(O)c1ccccc1` (stereo not drawn) is recorded as 0 (CYP27A1; substrate; 50 µM, 3 h, 0.45% cyclodextrin, 1 µM enzyme).
With `COc1cc2c(CCNC(C)=O)c[nH]c2cc1OS(=O)(=O)O` the concentration was 1270 ± 650 ng/g (Abcg2 (mouse); FVB/N Abcg2-/- male mice, small intestine; oral, 10 mg/kg melatonin, 1 h).
`CC[C@H](C)[C@@H]1NC(=O)[C@H](Cc2c[nH]c3ccccc23)NC(=O)[C@H](CCCN)NC(=O)CNC(=O)[C@H]2CCCN2C(=O)[C@H](C(C)C)NC(=O)[C@H](CCCCN)NC(=O)[C@H](C(C)C)NC(=O)[C@@H](NC(=O)[C@H](CCCNC(=N)N)NC(C)=O)CCCCn2cc(nn2)C[C@@H](C(=O)N[C@@H](CCC(N)=O)C(N)=O)NC1=O` gave a half-life of 0.667 h (Serine protease 1 (PRSS1, Bos taurus, UniProt P00760); proteolytic degradation, substrate, HPLC; 0.25 mM, pH 7.6, 37 °C).
`CC(C)C[C@H](NC(=O)[C@@H]1CCCN1C(=O)[C@H](CCCNC(=N)N)NC(=O)CNC(=O)[C@H](CCCCNC(=O)CN1CCN(CC(=O)O)CCN(CC(=O)O)CCN(CC(=O)O)CC1)NC(=O)CC[C@@H]1NC(=O)[C@@H](Cc2ccccc2)NC(=O)[C@H](CC(=O)O)NC(=O)CNC(=O)[C@H](CCCNC(=N)N)NC1=O)C(=O)N[C@H](C(=O)N[C@@H](Cc1ccc(O)cc1)C(=O)O)C(C)C` [copper-64 labelled] — result for peptide cleavage: “no effect” (MMP2 (Homo sapiens, UniProt P08253); substrate, radio-HPLC; pH 7.5, 37 °C, together with: APMA-activated enzyme).

A few entries again:
With `[64Cu+2].c1cnc(CNCc2ccc(CN3CCCN4CCNCCCN(CC4)CC3)cc2)nc1` the tissue uptake was 6.49 ± 0.6 %ID/g (CXCR4 (human); NOD/SCID mice, U87 xenografts, U87 control tumour; 120 min post-injection).
With `CCc1cc(C)nc2c(CC(=O)N(CC)CC)c(-c3ccc(OCC[18F])cc3)nn12` the K1/k2 ratio was 0.277 mL/cm3 (Tspo (Rattus norvegicus, UniProt P16257); two-tissue compartment model; rat C6 glioma model, brain; 60 min dynamic PET).
With `CNC(=O)c1ccc(N2CCN(Cc3ccc4nc(C)c(=O)[nH]c4c3F)CC2)c([18F])n1` the radioactivity uptake was 1.1 SUV (Poly [ADP-ribose] polymerase 1 (Macaca mulatta, UniProt H9FQ77); PET; male rhesus monkeys, prefrontal cortex; intravenous, dose not given, baseline).
